Values quoted from earlier work, collected from citations in different studies.
Organism: Mycobacterium tuberculosis

| SMILES | test | system | conditions | MIC |
| --- | --- | --- | --- | --- |
| Cc1nc2sc3ccccc3n2c1C(=O)NNC(=O)c1ccc(Oc2ccccc2)cc1 | – | – | – | 3.53 µM |
| Cc1ccc2nc(C)c(C(=O)NCc3cc(F)cc(F)c3)n2c1 | alamar blue fluorescence | H37Rv | – | 0.08 µM |
| O=C(N1CCN(c2nc(=O)c3cc(C(F)(F)F)cc([N+](=O)[O-])c3s2)CC1)C12CC3CC(CC(C3)C1)C2 | – | H37Rv | – | 0.031 µM |
| O=C(O)c1c(=O)c2cc([N+](=O)[O-])c(N3CCC4(CC3)OCCO4)nc2n2c1sc1ccccc12 | – | H37Rv | – | 0.19 µM |
| O=C(NC1CCCCCC1)c1ccc2ccccc2n1 | – | H37Rv | – | 111 µM |
| O=C(Nc1ccc(Cl)cn1)c1cccc(C(F)(F)F)c1 | – | – | – | 31.2 µg/mL |
| O=C(/C=C/c1cccs1)N1CCN(Cc2ccc3c(c2)OCO3)CC1 | bacterial growth | H37Rv | – | 0.3 µM |
| O=C1c2ccccc2C(=O)N1c1ccc(S(=O)(=O)Nc2nccs2)cc1 | – | H37Rv | – | 10 µg/mL |
| CC(=O)N(CCCP(=O)(O)O)OCc1cccc2ccccc12 | – | – | – | 25 to 200 µg/mL |
| O=C1c2c(F)c(F)c(F)c(F)c2C(=O)N1c1ccc(S(=O)(=O)Nc2ccccc2)cc1 | – | H37Ra | – | 32 µg/mL |
| FC(F)(F)c1cc(-n2cc(CN3CCCN(c4noc5ccccc45)CC3)nn2)ccc1Br | – | – | concentration not given | 24 µM |
